Published values pooled from the literature.
Every numbered part comes from another study and shows a few of its results, in no order. Substitutions count along the parent as printed.
Sequence of UniProt Q8NEB9 (whole entry, looked up): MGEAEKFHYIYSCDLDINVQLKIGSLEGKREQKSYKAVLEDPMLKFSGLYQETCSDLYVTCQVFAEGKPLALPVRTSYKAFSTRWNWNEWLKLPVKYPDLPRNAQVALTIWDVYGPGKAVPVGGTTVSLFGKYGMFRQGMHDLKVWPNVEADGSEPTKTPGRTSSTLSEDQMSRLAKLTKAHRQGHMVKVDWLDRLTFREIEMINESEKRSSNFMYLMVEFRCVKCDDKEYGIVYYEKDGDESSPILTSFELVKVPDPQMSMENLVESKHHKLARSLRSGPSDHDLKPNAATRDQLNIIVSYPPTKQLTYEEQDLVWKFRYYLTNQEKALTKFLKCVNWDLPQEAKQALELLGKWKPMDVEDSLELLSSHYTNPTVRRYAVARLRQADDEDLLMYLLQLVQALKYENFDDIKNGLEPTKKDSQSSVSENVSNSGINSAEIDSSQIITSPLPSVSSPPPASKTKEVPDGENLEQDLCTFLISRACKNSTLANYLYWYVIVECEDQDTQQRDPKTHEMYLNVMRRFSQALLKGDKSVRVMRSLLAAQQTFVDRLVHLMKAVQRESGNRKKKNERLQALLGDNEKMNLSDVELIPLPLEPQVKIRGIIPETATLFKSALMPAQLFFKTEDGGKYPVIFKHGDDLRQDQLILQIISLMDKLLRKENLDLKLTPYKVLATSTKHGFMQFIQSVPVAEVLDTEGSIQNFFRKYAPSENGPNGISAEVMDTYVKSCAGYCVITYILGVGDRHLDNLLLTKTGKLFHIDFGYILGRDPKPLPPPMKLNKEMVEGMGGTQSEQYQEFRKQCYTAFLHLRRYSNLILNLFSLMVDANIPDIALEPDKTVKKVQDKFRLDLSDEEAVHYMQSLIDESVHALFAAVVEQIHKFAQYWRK
Sequence of UniProt P48730 (whole entry, looked up): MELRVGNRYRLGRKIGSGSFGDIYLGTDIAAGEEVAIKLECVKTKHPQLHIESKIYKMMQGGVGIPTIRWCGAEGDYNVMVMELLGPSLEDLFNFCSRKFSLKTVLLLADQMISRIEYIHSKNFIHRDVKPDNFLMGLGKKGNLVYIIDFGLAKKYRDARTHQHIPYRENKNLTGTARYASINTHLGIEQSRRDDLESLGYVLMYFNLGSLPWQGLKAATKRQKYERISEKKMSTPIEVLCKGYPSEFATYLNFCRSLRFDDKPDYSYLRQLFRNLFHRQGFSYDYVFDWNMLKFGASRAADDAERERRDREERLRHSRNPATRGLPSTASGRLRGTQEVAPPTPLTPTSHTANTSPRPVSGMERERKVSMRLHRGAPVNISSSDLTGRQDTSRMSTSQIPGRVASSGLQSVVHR
Sequence of UniProt Q96NX5 (whole entry, looked up): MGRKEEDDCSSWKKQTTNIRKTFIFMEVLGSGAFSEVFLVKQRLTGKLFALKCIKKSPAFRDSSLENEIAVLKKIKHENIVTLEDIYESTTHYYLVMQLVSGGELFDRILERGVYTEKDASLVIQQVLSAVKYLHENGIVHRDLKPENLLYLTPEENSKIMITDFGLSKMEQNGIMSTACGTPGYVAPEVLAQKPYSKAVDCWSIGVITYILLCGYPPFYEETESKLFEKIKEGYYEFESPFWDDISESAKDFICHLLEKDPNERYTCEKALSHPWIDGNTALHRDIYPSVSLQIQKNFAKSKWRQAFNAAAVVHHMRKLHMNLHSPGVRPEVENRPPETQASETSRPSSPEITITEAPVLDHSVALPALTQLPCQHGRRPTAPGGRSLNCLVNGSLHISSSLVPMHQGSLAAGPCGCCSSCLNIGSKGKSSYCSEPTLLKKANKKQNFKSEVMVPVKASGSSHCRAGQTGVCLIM
Sequence of UniProt Q13043 (whole entry, looked up): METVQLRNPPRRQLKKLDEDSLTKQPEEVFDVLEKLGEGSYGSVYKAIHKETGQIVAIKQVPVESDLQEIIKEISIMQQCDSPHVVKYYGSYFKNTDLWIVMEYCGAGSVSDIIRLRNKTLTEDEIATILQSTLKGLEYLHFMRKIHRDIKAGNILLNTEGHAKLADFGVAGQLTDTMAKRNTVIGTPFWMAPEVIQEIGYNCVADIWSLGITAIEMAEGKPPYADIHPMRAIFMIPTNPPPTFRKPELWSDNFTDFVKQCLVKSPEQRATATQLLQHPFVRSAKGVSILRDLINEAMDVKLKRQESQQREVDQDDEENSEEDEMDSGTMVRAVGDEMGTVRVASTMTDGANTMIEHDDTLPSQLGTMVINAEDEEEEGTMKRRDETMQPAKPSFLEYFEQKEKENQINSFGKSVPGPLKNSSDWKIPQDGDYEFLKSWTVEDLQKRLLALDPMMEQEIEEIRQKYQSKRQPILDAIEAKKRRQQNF
Sequence of UniProt P57078 (whole entry, looked up): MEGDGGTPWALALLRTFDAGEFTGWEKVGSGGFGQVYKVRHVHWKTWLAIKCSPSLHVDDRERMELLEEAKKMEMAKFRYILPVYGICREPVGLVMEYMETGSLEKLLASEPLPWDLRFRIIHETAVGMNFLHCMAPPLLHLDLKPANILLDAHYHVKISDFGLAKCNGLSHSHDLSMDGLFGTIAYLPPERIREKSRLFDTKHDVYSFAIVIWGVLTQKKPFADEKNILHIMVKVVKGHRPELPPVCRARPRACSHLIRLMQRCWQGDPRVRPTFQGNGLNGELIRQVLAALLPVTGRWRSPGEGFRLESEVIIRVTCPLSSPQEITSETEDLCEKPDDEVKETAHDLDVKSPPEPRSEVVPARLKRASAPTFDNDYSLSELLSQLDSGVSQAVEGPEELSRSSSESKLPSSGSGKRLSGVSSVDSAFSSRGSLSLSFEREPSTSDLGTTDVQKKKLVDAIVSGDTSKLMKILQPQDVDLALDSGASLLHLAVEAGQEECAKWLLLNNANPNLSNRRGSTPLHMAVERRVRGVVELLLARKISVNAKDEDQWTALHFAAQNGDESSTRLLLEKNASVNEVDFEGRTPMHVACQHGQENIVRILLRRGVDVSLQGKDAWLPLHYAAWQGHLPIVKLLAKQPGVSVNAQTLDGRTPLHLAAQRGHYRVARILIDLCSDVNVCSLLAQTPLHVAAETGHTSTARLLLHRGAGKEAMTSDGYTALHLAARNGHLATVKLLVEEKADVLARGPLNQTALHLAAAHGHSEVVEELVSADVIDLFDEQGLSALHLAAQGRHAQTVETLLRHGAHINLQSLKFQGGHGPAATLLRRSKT
Sequence of UniProt O75747 (whole entry, looked up): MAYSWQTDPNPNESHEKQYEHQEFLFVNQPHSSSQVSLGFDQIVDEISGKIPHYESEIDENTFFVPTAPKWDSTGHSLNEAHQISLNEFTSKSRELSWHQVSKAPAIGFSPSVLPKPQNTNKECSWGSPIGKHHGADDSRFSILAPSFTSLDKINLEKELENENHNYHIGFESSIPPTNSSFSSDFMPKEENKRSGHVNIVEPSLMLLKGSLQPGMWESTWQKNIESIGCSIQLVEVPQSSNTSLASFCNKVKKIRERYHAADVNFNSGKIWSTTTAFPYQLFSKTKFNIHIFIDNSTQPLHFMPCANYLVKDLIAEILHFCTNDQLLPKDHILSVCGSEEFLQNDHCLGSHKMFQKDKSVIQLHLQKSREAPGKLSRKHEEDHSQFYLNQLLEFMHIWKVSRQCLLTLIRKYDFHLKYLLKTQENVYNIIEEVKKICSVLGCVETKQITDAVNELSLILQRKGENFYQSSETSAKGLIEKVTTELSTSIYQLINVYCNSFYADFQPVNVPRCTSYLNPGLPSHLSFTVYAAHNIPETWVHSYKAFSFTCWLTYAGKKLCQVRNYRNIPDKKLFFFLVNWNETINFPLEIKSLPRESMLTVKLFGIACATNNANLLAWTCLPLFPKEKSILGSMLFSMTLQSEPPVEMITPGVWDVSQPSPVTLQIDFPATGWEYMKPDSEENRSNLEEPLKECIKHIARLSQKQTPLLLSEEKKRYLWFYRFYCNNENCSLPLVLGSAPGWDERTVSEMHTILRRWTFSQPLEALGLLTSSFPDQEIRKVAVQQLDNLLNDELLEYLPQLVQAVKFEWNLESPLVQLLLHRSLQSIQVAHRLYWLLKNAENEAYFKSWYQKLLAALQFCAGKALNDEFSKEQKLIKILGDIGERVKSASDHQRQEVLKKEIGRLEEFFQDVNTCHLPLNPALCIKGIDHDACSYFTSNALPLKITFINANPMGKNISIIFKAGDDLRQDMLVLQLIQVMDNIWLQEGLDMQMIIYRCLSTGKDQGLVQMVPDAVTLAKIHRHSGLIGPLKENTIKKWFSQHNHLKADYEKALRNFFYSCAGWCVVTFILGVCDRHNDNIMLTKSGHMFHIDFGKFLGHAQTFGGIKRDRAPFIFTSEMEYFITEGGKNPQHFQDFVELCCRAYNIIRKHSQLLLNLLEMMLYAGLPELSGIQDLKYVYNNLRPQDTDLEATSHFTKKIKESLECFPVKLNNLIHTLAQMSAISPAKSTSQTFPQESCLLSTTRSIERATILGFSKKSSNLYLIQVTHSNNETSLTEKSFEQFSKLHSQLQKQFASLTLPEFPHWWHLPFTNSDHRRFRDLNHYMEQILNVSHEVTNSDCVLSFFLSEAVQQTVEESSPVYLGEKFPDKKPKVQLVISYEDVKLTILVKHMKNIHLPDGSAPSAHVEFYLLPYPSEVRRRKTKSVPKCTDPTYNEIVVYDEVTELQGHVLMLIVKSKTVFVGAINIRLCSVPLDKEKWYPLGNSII
Sequence of UniProt P78368 (whole entry, looked up): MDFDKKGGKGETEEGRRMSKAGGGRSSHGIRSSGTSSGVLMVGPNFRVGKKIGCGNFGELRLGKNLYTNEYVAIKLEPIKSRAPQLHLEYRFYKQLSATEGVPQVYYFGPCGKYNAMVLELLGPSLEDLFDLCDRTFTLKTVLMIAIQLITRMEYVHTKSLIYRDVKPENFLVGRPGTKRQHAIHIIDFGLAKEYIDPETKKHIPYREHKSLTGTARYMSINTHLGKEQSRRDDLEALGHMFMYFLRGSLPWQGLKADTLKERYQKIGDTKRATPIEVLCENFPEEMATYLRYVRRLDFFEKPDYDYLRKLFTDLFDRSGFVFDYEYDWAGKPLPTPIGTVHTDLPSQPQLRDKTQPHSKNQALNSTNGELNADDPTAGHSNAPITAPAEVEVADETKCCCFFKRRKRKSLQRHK

Block 1 — target: vanadate, free oxyanion; technique: microfluidic competitive inhibition; sample: in vitro, cell-free expressed; tested at: not given; direction: lower = stronger binding
Setting: derived from inhibition constants, unchanged parent 676 nM
Starting sequence: PafA, mature enzyme, eGFP fusion (Elizabethkingia meningoseptica, UniProt Q9KJX5); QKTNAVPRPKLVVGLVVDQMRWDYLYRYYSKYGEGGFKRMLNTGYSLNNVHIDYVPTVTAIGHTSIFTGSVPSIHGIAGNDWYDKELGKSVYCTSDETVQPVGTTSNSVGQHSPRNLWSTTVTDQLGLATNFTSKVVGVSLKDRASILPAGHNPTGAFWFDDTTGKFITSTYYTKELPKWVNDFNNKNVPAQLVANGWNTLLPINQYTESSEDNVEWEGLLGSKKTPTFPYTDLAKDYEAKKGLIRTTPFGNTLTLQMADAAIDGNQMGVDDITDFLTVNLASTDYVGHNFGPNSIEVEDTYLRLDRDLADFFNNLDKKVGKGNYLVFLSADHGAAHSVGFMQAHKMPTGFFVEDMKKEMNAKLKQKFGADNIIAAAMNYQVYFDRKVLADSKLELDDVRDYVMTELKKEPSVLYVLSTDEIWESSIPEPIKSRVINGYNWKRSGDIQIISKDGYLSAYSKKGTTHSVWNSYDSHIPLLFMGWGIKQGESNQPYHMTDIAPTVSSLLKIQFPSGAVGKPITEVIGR
Substitution | oxyanion analog dissociation constant [nM]
S412V | 906
H75V | 658
K346V | 782
E299G | 1010
S46G | 580
L177V | 578
Y29G | 694
T200V | 713
T284G | 774
K363V | 828
L41G | 830
L141G | 8850
E489V | 752
S504V | 608
T155V | 599
F160G | 1170
T3G | 602
D355G | 549
I431G | 782
L220V | 908
Y286V | 4250
T123G | 665
L117G | 472
D260V | 876
A78V | 692

Block 2 — effect on: cell-free assay; technique: competition with immobilised ligand; tested at: 1 µM
Compound: N#CC1(c2ccccn2)CCN(Cc2cc(C(=O)O)c(=O)n3ccccc23)CC1
target | remaining binding
MET (Homo sapiens, UniProt P08581) | 84%
Ribosomal protein S6 kinase alpha-2, C-terminal kinase domain (RPS6KA2, Homo sapiens, UniProt Q15349) | 100%
MAP3K4 (Homo sapiens, UniProt Q9Y6R4) | 100%
SBK1 (Homo sapiens, UniProt Q52WX2) | 83%
PKMYT1 (Homo sapiens, UniProt Q99640) | 100%
Ribosomal protein S6 kinase alpha-1, N-terminal kinase domain (RPS6KA1, Homo sapiens, UniProt Q15418) | 94%
PIKFYVE (Homo sapiens, UniProt Q9Y2I7) | 97%
EGFR (Homo sapiens, UniProt P00533, L861Q) | 100%
MAPK15 (Homo sapiens, UniProt Q8TD08) | 100%
STK4 (Homo sapiens, UniProt Q13043) | 100%
MAP4K5 (Homo sapiens, UniProt Q9Y4K4) | 87%
CSNK1G2 (Homo sapiens, UniProt P78368) | 91%
PIK3C2G (Homo sapiens, UniProt O75747) | 97%
EGFR (Homo sapiens, UniProt P00533, L858R) | 86%
CAMK2G (Homo sapiens, UniProt Q13555) | 100%
PIK3C3 (Homo sapiens, UniProt Q8NEB9) | 70%
CSNK1A1L (Homo sapiens, UniProt Q8N752) | 100%
DAPK1 (Homo sapiens, UniProt P53355) | 100%
ULK1 (Homo sapiens, UniProt O75385) | 76%
MARK4 (Homo sapiens, UniProt Q96L34) | 98%
RIPK4 (Homo sapiens, UniProt P57078) | 80%
CAMK1G (Homo sapiens, UniProt Q96NX5) | 100%

Block 3
Structure (SMILES): CNC(=O)c1ccc(-c2cnn3ccc(C(=O)N(C)c4ccc(Cl)c(C(=O)O)c4)cc23)cc1
target | effect on | action | IC50
PDE4D (Homo sapiens, UniProt Q08499) | cell-free assay | inhibitor | > 30 µM
PTGS2 (Homo sapiens, UniProt P35354) | cell-free assay | inhibitor | > 30 µM
ABL1 (Homo sapiens, UniProt P00519) | enzyme activity | inhibitor | > 30 µM
HTR1A (Homo sapiens, UniProt P08908) | cell-free assay | – | > 30 µM
SLC6A4 (Homo sapiens, UniProt P31645) | cell-free assay | – | > 30 µM
FLT1 (Homo sapiens, UniProt P17948) | enzyme activity | inhibitor | > 30 µM
DRD1 (Homo sapiens, UniProt P21728) | cell-free assay | – | > 30 µM
CSNK1D (Homo sapiens, UniProt P48730) | enzyme activity | inhibitor | > 30 µM
JAK1 (Homo sapiens, UniProt P23458) | enzyme activity | inhibitor | > 30 µM

Block 4 — technique: aptamer microarray, sandwich; form: DNA with 2'F-ANA; sample: in vitro; tested at: 200 nM; added: Cy3 exosite-II aptamer, 400 nM; direction: higher = stronger binding; oligonucleotide: GGTTGGTGTGGTTGG
Target: Prothrombin, mature alpha-thrombin (F2, Homo sapiens, UniProt P00734)
Setting: whole 15-mer aptamer, many near background
Modification | mean fluorescence intensity [a.u.]
2'F-ANA at 2 7 9 10 11 13 14 15 | 91.2
2'F-ANA at 6 8 9 10 13 15 | 133
2'F-ANA at 3 4 6 8 10 13 15 | 213
2'F-ANA at 1 2 3 5 7 9 11 12 14 | 97.8
2'F-ANA at 5 6 8 9 10 12 13 | 48.3
2'F-ANA at 1 3 5 6 7 10 13 | 48.2
2'F-ANA at 2 5 7 8 9 11 12 13 | 96
2'F-ANA at 1 2 6 7 8 10 | 53.8

For quick reference, copied from above (block 2):
target | remaining binding
EGFR (Homo sapiens, UniProt P00533, L861Q) | 100%
MAPK15 (Homo sapiens, UniProt Q8TD08) | 100%
STK4 (Homo sapiens, UniProt Q13043) | 100%
MAP4K5 (Homo sapiens, UniProt Q9Y4K4) | 87%
CSNK1G2 (Homo sapiens, UniProt P78368) | 91%
PIK3C2G (Homo sapiens, UniProt O75747) | 97%
EGFR (Homo sapiens, UniProt P00533, L858R) | 86%
CAMK2G (Homo sapiens, UniProt Q13555) | 100%
